Assay results collected from several papers.
Every numbered part comes from another study and shows a few of its results, in no order. Changes are numbered by the printed parent chain.

Block 1
Target: ABI1, truncated, D143A, DHFR fusion (Arabidopsis thaliana)
Technique: DHFR PCA, deep sequencing
Matrix: yeast
Setting: methotrexate growth selection, single substitutions
Added: (+)-ABA 0.0091 µM
Baseline: wild-type fitted maximum
Reading: higher = stronger binding
Parent: PYL1, truncated, DHFR fusion (Arabidopsis thaliana); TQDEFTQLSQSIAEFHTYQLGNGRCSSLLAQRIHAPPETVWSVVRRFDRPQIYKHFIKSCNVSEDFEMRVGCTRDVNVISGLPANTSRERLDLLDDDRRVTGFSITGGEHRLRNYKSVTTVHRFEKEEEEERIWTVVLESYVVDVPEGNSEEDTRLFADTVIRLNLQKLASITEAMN
| Variant | relative binding score [%] |
| --- | --- |
| T106K | 0.942 |
| L112P | 3.61 |
| N177D | 11.9 |
| L28C | 7.09 |
| M68D | 0.347 |
| V62F | -2.2 |
| S59C | -1.17 |
| D159I | -5.27 |
| E174Q | 0.14 |
| P36C | 5.65 |
| C72H | 1.55 |
| K58Q | 4.96 |

Block 2
Target: Histone acetyltransferase KAT6A, winged helix 1, GST fusion (KAT6A, Homo sapiens, UniProt Q92794, residues 1-85)
Technique: protein binding microarray
Molecule type: double-stranded DNA, one strand shown
Matrix: in vitro
Concentration: not given
Setting: 8-mer, flanks averaged, mean of 2 arrays, mostly near background
Baseline: not given
Reading: higher = stronger binding
Target sequence (chain): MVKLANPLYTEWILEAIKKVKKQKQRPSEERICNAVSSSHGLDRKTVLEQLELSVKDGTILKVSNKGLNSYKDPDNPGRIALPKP
| Oligonucleotide | E-score |
| --- | --- |
| AGAAAGCC | -0.0454 |
| CGTTGTAG | -0.0372 |
| AAAAAGAG | -0.233 |
| GAATGTTA | -0.0474 |
| CAGTTGGA | 0.0101 |
| CACAAAGG | -0.113 |
| TGTCCCAA | -0.127 |
| CGTTATAC | -0.0421 |
| CCAGGCTC | -0.182 |
| AGGTCACG | -0.035 |
| AAGTAGGC | -0.146 |
| CACATCGC | 0.077 |
| AGTTATTG | -0.188 |
| ACGGTCAG | 0.135 |
| CGTACACA | 0.0194 |
| ACTCAGCG | 0.0416 |
| ATCGAGTC | 0.00885 |
| GTGCAGTA | -0.0548 |
| GGCTACAC | 0.0281 |
| ACGGCAGA | 0.258 |

Block 3
Target: Ras GTPase-activating protein-binding protein 1, C-terminal RGG region (G3BP1, Homo sapiens, UniProt Q13283)
UniProt Q13283, sequence (whole entry, looked up): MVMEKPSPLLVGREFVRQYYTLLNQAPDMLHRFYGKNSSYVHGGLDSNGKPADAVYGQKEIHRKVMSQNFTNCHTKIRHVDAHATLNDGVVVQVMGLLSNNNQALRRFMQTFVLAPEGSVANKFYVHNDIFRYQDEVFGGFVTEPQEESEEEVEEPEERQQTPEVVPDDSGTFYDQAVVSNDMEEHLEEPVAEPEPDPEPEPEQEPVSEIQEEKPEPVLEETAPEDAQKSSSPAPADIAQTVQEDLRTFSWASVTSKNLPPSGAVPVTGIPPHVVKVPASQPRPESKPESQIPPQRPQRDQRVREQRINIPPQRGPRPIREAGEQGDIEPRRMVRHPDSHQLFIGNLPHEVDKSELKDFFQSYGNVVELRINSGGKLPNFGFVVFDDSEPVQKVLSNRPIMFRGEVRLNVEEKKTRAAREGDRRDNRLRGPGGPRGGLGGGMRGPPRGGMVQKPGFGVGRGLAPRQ
Technique: RNA Bind-n-Seq
Molecule type: RNA
Matrix: in vitro
Concentration: 1 µM
Setting: whole 134-nt RNA, ends assumed
Added: 150 mM KCl
Baseline: input library
Reading: higher = stronger binding
| Oligonucleotide | log2 enrichment |
| --- | --- |
| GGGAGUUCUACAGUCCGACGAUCGCAGGAAGUAAAAACAAAUGGAAAUGCUUCGGAUAGUGGCAGGGCUGGGGGUUGCUAAGGAAAGGGUGGGAUGGGAGUGGGUAAAGAGUUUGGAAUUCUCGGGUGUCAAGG | 1.8 |
| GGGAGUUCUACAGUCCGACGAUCGUCCUGUGCUACACAUCGUAUGUACCGAAUCGGGAAAGGGUUUUUGGGUUUUUUUGGGAAAGUAUUAUGUUACGCCGUUCGGAUCUGCACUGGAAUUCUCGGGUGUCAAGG | -0.254 |
| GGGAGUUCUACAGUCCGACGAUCCAAGUCCUGUGCUACACAUCGUAUGUACCGAAUCGGAAAAAGGUUUGGAAAAAGGAAAGUAUUAUGUUACGCCGUUCGGAUCUGCACUUCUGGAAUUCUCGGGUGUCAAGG | -1.89 |
| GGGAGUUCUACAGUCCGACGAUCUCCUGUGCUACACAUCGUAUGUACCGAAUCGGGAAAAAAGGGAAAAAAGGGAAAAAAGGAAAGUAUUAUGUUACGCCGUUCGGAUCUGCAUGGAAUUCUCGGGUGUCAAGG | -1.12 |
| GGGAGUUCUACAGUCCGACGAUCCCUCAAGUCCUGUGCUACACAUCGUAUGUACCGAAUCGGGGAGGGGAGGGAGGAAAGUAUUAUGUUACGCCGUUCGGAUCUGCACUUCCAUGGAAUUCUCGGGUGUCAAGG | 0.432 |
| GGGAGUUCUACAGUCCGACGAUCUCAAGUCCUGUGCUACACAUCGUAUGUACCGAAUCGGUGGAAAGGUUUUUUUGGAAAGUAUUAUGUUACGCCGUUCGGAUCUGCACUUCCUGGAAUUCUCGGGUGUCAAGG | -1.42 |
| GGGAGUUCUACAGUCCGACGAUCCAAGUCCUGUGCUACACAUCGUAUGUACCGAAUCGGGGCCGGGGCCGGGGCCGGGGAAAGUAUUAUGUUACGCCGUUCGGAUCUGCACUUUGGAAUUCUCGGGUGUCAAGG | -1.58 |
| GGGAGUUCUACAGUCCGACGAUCUAACUUUAGAGGAGGAUCUGAUGGAUAUGGCAGUGGACGUGGAUUUGGGGAUGGCUAUAAUGGGUAUGGAGGAGGACCUGGGGGUGGCAAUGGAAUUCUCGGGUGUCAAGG | -0.682 |
| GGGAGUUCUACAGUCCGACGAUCUUAAAGUAGAGGAACAAAAAGAAGAACAGAAGGAGUUAGAGAAAUCUGAAAAAGAAGAGGAUGAGGAUGAUGAUAGGAAAUCUGAAGACGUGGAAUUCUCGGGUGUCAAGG | -1.28 |
| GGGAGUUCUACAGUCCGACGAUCUCCUGUGCUACACAUCGUAUGUACCGAAUCGGGGAAAAAGGGGAAAAAGGAAAAAGGGGAAAGUAUUAUGUUACGCCGUUCGGAUCUGCAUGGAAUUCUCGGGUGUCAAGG | -1.12 |
| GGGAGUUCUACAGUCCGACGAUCAAAAGACAACACGCACCCACACAGACACAGAGGGAAGGGGUUGGGAUGGGGACAGGGUGCACAGCAGGGCGGGGUAGGACCCCAGCCCCUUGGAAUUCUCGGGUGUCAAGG | 0.00625 |
| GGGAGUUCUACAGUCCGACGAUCCAAGUCCUGUGCUACACAUCGUAUGUACCGAAUCGGUUUUUUUGGAGGUUUUUGGAAAGUAUUAUGUUACGCCGUUCGGAUCUGCACUUCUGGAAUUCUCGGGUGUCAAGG | -1.52 |
| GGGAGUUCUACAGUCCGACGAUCGCAGGAAGUAAAAACAAAUGGAAAUGCUUCGGAUAGUGGCAGGGGUGGGGGUUGCUAAGGAAAGGGUGGGAUGGGAGUGGGUAAAGAGUUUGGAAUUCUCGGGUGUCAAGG | 2.02 |
| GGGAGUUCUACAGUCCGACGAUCCUCAAGUCCUGUGCUACACAUCGUAUGUACCGAAUCGGGGUUGGGUUGGUUGGGAAAGUAUUAUGUUACGCCGUUCGGAUCUGCACUUCCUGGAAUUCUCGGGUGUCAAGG | 0.18 |

Block 4
Target: PABPC1L2, full length, GST fusion (mouse, UniProt A0ABA7IW68)
Technique: RNAcompete
Molecule type: RNA
Matrix: in vitro
Concentration: 20 nM
Setting: 7-mer, probes averaged, single round
Baseline: mean of 7-mers
Reading: higher = stronger binding
Target sequence (chain): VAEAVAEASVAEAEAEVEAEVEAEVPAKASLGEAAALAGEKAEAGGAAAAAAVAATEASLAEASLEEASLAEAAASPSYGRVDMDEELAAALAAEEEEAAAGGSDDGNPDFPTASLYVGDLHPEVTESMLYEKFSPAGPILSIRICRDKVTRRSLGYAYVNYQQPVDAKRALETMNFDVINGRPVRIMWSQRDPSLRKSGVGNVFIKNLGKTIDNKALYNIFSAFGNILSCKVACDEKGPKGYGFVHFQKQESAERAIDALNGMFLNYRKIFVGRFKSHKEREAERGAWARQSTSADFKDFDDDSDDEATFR
| Oligonucleotide | 7-mer Z-score |
| --- | --- |
| GCUCCAU | -0.166 |
| GAGCUGC | -0.208 |
| GGGCGGG | 0.247 |
| UACAAUG | -0.0156 |
| GGCCGCU | -0.235 |
| GUCGCGA | -0.262 |
| GCUUGAA | -0.0953 |
| CAAAGCG | 0.204 |
| CUCAACG | -0.278 |
| CAUGACG | -0.211 |
| UUGCCUU | -0.255 |
| UCUCUAA | -0.175 |
| CUAGAGA | 0.0225 |
| AGAAGGA | 0.108 |
| UGUGAGA | -0.188 |
| CCCUCAG | -0.264 |
| ACACUAG | -0.00108 |

Block 5
Target: RNA binding protein fox-1 homolog 2, RRM domain, GST-SBP tag (RBFOX2, Homo sapiens, UniProt O43251-10, residues 100-194)
Technique: RNA Bind-n-Seq
Molecule type: RNA
Matrix: in vitro
Concentration: 365 nM
Setting: natural RNA segment, single round, ends assumed
Baseline: no-protein control
Reading: higher = stronger binding
Residues (chain): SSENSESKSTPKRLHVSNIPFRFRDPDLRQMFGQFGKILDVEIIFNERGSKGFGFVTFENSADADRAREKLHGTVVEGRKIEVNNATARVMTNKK
| Oligonucleotide | RBNS enrichment (R) |
| --- | --- |
| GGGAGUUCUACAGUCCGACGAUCUAAGAGUCAGUUCUUCAAUUCUGGUCCCAUUAUCUCCAAGUGCCUUUUUUACAGUGACAACAGACAGUCCCUCGGUUUCAUGUCUUUUCGUAACCCUUUCAAUUGAACUGUGGAAUUCUCGGGUGCCAA | 0.363 |
| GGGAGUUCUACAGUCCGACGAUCGAAGAGGUUUUCUUGAUAAUUUUCCUUUAAUAUGAAAUUUUCGUGCUUUAUCAGUAGCCCAGGAUAUAUUUUAUUUUUAGAAUUUUGUGAGCCAGACUUGUAUAUUCUAUUGGAAUUCUCGGGUGCCAA | 0.721 |
| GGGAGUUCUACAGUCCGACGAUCACUUUAGAUAGCAGAAUUAUUUGCAAUUUGUAGCAUAGAAAAGAUUUUUAAAUUUUUUUACAAAAGGUUUUUAAACAGAUUAGGGUAGGUGAUGGUUUAAAUCAAUUAAGUGGAAUUCUCGGGUGCCAA | 0.696 |
| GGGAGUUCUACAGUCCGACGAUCGGUGCCACCAUUGGUGCUGCCUUCUCUUCCCACAGCCUGUAACUCAGUGUUUUGUACUUCACUGAAUUGUGAUGGUUAGAAACUUCGUGGAUAGUUUGUGGAAAUCAUCCUGGAAUUCUCGGGUGCCAA | 0.698 |
| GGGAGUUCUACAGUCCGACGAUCGAAAGUGCCUGUGUCUCACACCAAGAAUCUUGCCUAACCUGUCAGAGUGCCUAAUCUUGUGGUUAUAAUGUACAAUGAAAUAAUCUUGUGGGGGUUUUUUGUUUUCUCAAUGGAAUUCUCGGGUGCCAA | 0.919 |
| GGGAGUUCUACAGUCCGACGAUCUACUUCAUUUGGUGCUGGUCUAUUUUGAUUUUGGGGGGUAAUCAGCAUUAUUCUUCAGAAGGGGACCUGUUUUCUUCAAGGGAAGAAACACUCUUAUUCCCAAACUACAGUGGAAUUCUCGGGUGCCAA | 0.231 |
| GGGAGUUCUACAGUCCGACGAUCUUCCUUCUGCCCAUCUUCCAUGUUGUAAAGGAACAGCCCCAGUGCACUGGGGGAGGGGAGGGAGUGAGGGGCAGUGGUGCCCUUCCUGCAGAAGAGACAUGCAGCAGUAGUGGAAUUCUCGGGUGCCAA | 0.291 |
| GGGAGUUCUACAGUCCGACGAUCUCCCCUCUCUUGUCUCCAUUAUUUUAAUUGCUUUUUCUGGCAGCACGGUGGGGACAGGGCAGAUUUAUGAGAAAUAUCAAUUGCCCCUCUCUUCUGGACCAAUUCCUUAAUGGAAUUCUCGGGUGCCAA | 0.453 |
| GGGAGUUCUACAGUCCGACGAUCAUGACCAGUAUUUCCAGAGUAAGGUGGAAGAUGAGAAAGAGAUAAGUUACCAAGAGAAGCUGGAGGGAUACCUCUGAGUGACUGCUGUGUUUCUUCUAUUGUAGACACCAUGGAAUUCUCGGGUGCCAA | 0.683 |
| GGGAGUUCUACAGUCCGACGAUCAUGCUUGUCAAUAGCCUUUUUCUAUCAAGAAAACAAGGAGCUAAUUAUUAAUAACAGUCAUGGCACACUGUGUCCUAUCUUAGCAUUUAAAAGUAUGCAAACUCCAGGUCUGGAAUUCUCGGGUGCCAA | 0.355 |
| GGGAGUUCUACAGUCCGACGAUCCCUGAGAGGUUCUUGAAGAUGUUUAUUUAUAUUGUCCUUUUUUACUGGAAGACGUACGCAUACUCCAUCGAUGUUGUAUUUGCAGUGGCUGAGGAAUUCUUGUACGCAGUUGGAAUUCUCGGGUGCCAA | 2.05 |
| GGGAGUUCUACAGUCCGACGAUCGGUGAGACGGCUGUUUCCAUCAAGAACUCCUAGCACUGCUGUAAAUAUCAUGGUGCCUACUGGAAGGGAAUGUAGAUGCUAUGCAUUUUGGAAAUAAUCUGCAUCUGUUAUGGAAUUCUCGGGUGCCAA | 3.05 |

For quick reference, copied from above (block 1):
| Variant | relative binding score [%] |
| --- | --- |
| T106K | 0.942 |
| E174Q | 0.14 |
| S59C | -1.17 |
| C72H | 1.55 |
| D159I | -5.27 |
| K58Q | 4.96 |
| V62F | -2.2 |
| L112P | 3.61 |
